Results pooled from the literature.
UniProt P16591, sequence (whole entry, looked up): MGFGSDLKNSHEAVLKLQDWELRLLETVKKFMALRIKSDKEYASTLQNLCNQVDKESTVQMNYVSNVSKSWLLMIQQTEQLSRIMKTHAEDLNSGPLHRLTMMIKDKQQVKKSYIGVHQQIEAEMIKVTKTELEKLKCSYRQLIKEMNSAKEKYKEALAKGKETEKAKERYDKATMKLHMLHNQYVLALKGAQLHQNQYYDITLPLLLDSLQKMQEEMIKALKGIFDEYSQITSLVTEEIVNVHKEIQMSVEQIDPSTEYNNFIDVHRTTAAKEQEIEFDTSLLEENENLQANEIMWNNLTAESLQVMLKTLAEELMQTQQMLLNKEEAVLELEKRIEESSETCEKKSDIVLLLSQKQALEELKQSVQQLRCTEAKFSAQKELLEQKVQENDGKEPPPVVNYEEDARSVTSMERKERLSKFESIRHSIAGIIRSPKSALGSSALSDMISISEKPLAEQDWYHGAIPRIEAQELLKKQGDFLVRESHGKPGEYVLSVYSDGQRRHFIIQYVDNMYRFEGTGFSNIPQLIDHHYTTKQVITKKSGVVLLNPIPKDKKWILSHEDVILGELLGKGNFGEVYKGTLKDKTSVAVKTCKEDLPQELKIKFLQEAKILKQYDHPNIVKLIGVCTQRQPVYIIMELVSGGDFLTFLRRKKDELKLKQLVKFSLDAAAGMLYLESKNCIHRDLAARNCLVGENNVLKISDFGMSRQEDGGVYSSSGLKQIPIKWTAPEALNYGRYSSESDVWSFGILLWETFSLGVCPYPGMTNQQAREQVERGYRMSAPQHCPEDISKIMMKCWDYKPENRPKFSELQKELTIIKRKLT
UniProt P45983, sequence (whole entry, looked up): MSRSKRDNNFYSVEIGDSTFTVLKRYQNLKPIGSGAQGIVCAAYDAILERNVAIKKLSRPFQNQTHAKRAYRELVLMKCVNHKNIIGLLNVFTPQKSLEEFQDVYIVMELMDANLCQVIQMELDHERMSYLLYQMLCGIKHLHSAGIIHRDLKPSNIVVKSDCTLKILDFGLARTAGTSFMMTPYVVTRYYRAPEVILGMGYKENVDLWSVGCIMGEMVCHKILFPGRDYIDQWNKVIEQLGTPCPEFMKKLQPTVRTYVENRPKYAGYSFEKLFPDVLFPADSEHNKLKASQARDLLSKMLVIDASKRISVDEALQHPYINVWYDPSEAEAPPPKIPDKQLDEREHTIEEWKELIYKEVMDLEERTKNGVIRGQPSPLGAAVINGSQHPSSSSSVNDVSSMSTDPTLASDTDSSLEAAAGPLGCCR
UniProt O94768, sequence (whole entry, looked up): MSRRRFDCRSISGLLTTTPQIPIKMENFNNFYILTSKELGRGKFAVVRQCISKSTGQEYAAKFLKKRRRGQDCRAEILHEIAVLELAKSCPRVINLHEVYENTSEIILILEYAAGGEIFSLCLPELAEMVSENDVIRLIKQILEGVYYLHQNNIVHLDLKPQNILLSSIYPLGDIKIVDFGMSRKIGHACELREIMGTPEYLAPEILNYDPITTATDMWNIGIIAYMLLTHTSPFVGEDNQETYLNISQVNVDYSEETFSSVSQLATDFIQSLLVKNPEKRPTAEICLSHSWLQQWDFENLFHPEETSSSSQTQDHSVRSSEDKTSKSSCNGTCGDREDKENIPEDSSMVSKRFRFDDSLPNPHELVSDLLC

| SMILES | target or system | test | setting | quantity | result |
| --- | --- | --- | --- | --- | --- |
| COc1ccc(CNC[C@](O)(COCc2ccc(F)cc2)[C@@H]2CC[C@@H](C)C[C@H]2OCc2ccc(F)cc2)cc1 | A2780 | cell growth or viability, MTT | 30 µM, 72 h | inhibition | 95.4% |
| CNc1ncc2c(/C=C/C(=O)N3CCC(OC)CC3)nn(Cc3ccccc3C(F)(F)F)c2n1 | FLO-1 | cell growth or viability, resazurin | 5 days | EC50 | 5.16 µM |
| Cc1n[nH]c2ccc3nc(-c4ccc(C(=O)NCCN(C)C)cc4F)c4c(c3c12)CCCCC4 | ML-2 | cell growth or viability | 72 h | GI50 | 0.698 µM |
| C=CC(=O)N1CCC(COCC(=O)N2CCN(c3nc(-c4cnc(N)nc4C(F)F)nc(N4CCOC[C@@H]4C)n3)CC2)CC1 | FER (Homo sapiens, UniProt P16591) | binding, competition with immobilised ligand | 1 µM | remaining binding | 96% |
| Nc1ccccc1NC(=O)c1ccc(CNc2nccc(-c3cccnc3)n2)cc1 | MB002 | cell growth or viability | 7 days | IC50 | 0.0359 µM |
| O=C(Nc1ccccc1)Nc1ccc(Oc2nnc(-c3ccc(Cl)cc3)c3ccccc23)cc1 | MCF7 | cell growth or viability, MTT | 78 nM | cell death | 3.59% |
| C[C@@H]1CC[C@@H]([C@@](O)(CNCc2cccc3ccccc23)COCc2ccccc2)[C@H](OCc2ccccc2)C1 | A2780 | cell growth or viability, MTT | 30 µM, 72 h | inhibition | 98.5% |
| CNc1ncc2c(/C=C/C(=O)N3CCC(OC)CC3)nn(Cc3ccc(C)cc3)c2n1 | FLO-1 | cell growth or viability, resazurin | 5 days | EC50 | 2.34 µM |
| Cc1[nH]c2cc(F)ccc2c(=O)c1Cc1ccc(Cl)cc1.Cc1[nH]c2cccc(F)c2c(=O)c1Cc1ccc(Cl)cc1 | HEK293 | cell growth or viability |  | IC50 | > 10 µM |
| CCCCC(=O)Nc1ccc(-c2ccc3ncn(CCC)c(=O)c3c2)cn1 | STK17B (Homo sapiens, UniProt O94768) | binding, competition with immobilised ligand | 0.5 µM | remaining binding | 100% |
| O=C(C=Cc1ccccc1)Nc1ccc(Oc2nnc(-c3ccc(Cl)cc3)c3ccccc23)cc1 | MCF7 | cell growth or viability, MTT | 0.312 µM | cell death | 0.0443% |
| CCc1c(C)c2ccc(OCC=Cc3ccccc3)c(C)c2oc1=O | PC-3 | cell growth or viability, MTT | 31.25 µg/mL | viability | 93.9% |
| CC(=NNC(=O)c1ccc(N)cc1)c1ccc(Nc2nnc(-c3ccc(Cl)cc3)c3ccccc23)cc1 | MCF7 | cell growth or viability, MTT | 10 µM | cell death | 92.2% |
| CCN(Cc1cc(F)cc(F)c1)c1ccc(CO)c(Cl)c1 | RBE | cell growth or viability, ATP luminescence | 46 µM, 72 h | inhibition | 81% |
| CC(=NNC(=O)c1ccccc1O)c1ccc(Nc2nnc(-c3ccc(Cl)cc3)c3ccccc23)cc1 | MCF7 | cell growth or viability, MTT | 0.625 µM, 24 h | viability | 94.6% |
| OCc1ccc(-c2nn(Cc3ccncc3)c3ccccc23)o1 | RBE | cell growth or viability, ATP luminescence | 46 µM, 72 h | inhibition | 57% |
| Cc1[nH]c(C)c(-c2ccc(-c3ccc(OC(F)(F)F)cc3)nc2)c(=O)c1Cl | HEK293 | cell growth or viability |  | IC50 | > 10 µM |
| CCC(=CCc1c(O)cc2c(c1O)C(=O)C[C@@H](c1ccccc1O)O2)CC | HeLa | cell growth or viability, MTT | 0.938 µM, 48 h | inhibition | -6.75% |
| COc1cc(-c2cncc3c2CN(C)Cc2cc(N4CCNCC4)ccc2-3)cc(OC)c1OC | MAPK8 (Homo sapiens, UniProt P45983) | enzyme activity, inhibitor | 1 µM | remaining activity | 100% |
| Cc1noc(NS(=O)(=O)c2ccc(N=NN(O)c3ccccc3)cc2)c1C |  | ABTS scavenging | 120 µg/mL | inhibition | 57.4% |
| O=C(c1cc(-c2ccco2)[nH]n1)N1CCN(S(=O)(=O)c2ccc(Cl)cc2)CC1 | HEK293 | cell growth or viability |  | IC50 | > 10 µM |
| Cc1c(Cc2ccccc2)c(=O)oc2c(C)c(OCC(=O)NN=Cc3ccco3)ccc12 | PC-3 | cell growth or viability, MTT | 31.25 µg/mL | viability | 27% |
| Cc1ccc(C(CS(=O)(=O)c2ccccc2)=NNC2=NC(=O)C(=NNc3ccccc3)S2)cc1 | WM 266-4 | cell growth or viability, MTT | 0.4 µM, 48 h | viability | 65.5% |
| S=C(Nc1ccccc1)Nc1ccc(Oc2nnc(-c3ccc(Cl)cc3)c3ccccc23)cc1 | MCF7 | cell growth or viability, MTT | 2.5 µM | cell death | 96.4% |
| COC1CCN(C(=O)/C=C/c2nn(CC3CCCC3)c3ncnc(N)c23)CC1 | FLO-1 | cell growth or viability, resazurin | 5 days | EC50 | > 30 µM |
| CC(=NNC(=O)c1ccncc1)c1ccc(Nc2nnc(-c3ccc(Cl)cc3)c3ccccc23)cc1 | MCF7 | cell growth or viability, MTT | 5 µM | cell death | 93.3% |
| Cc1cc(NS(=O)(=O)c2ccc(N=NN(C)O)cc2)no1 |  | ABTS scavenging | 20 µg/mL | inhibition | 26.2% |
| CC(=NNC(=O)c1cccnc1)c1ccc(Nc2nnc(-c3ccc(Cl)cc3)c3ccccc23)cc1 | MCF7 | cell growth or viability, MTT | 1.25 µM, 24 h | viability | 15.4% |
| CC(=NNC(=O)COc1ccc2c(C)c(Cc3ccccc3)c(=O)oc2c1C)c1ccc(Br)cc1 | PC-3 | cell growth or viability, MTT | 1000 µg/mL | viability | 1.91% |

Excerpt of the above:
| SMILES | target or system | test | setting | quantity | result |
| --- | --- | --- | --- | --- | --- |
| C[C@@H]1CC[C@@H]([C@@](O)(CNCc2cccc3ccccc23)COCc2ccccc2)[C@H](OCc2ccccc2)C1 | A2780 | cell growth or viability, MTT | 30 µM, 72 h | inhibition | 98.5% |
| CNc1ncc2c(/C=C/C(=O)N3CCC(OC)CC3)nn(Cc3ccc(C)cc3)c2n1 | FLO-1 | cell growth or viability, resazurin | 5 days | EC50 | 2.34 µM |
| Cc1[nH]c2cc(F)ccc2c(=O)c1Cc1ccc(Cl)cc1.Cc1[nH]c2cccc(F)c2c(=O)c1Cc1ccc(Cl)cc1 | HEK293 | cell growth or viability |  | IC50 | > 10 µM |
